Experimental data of several laboratories.
Each numbered part is a random draw from the data of one study; scales do not carry over between parts. Several values in a cell are separate wells, animals, samples, runs or records. Substitutions count along the parent as printed.

Series 1 — target: CCNB1, cyclin fold, Cln2 fusion (human); technique: yeast growth competition, sequencing; medium: yeast; setting: strong parent motif; baseline: not given; reading: higher = stronger binding; starting sequence: viral docking peptide; YKVKRRLVFGADD
Change	normalised enrichment score
A11F	3.3
G10L	2.82
R6N	0.514
K4F	1.24
D12I	1.84
K4A	2.88
F9R	0.044
R5L	0.743

Series 2 — effect on: binding; technique: phage display NGS; form: peptide; tested at: concentration not given; setting: panning round 2; baseline: input library
Target: UDP-N-acetylglucosamine--peptide N-acetylglucosaminyltransferase 110 kDa subunit (OGT, Homo sapiens, UniProt O15294)
Residues (O15294 1-1046): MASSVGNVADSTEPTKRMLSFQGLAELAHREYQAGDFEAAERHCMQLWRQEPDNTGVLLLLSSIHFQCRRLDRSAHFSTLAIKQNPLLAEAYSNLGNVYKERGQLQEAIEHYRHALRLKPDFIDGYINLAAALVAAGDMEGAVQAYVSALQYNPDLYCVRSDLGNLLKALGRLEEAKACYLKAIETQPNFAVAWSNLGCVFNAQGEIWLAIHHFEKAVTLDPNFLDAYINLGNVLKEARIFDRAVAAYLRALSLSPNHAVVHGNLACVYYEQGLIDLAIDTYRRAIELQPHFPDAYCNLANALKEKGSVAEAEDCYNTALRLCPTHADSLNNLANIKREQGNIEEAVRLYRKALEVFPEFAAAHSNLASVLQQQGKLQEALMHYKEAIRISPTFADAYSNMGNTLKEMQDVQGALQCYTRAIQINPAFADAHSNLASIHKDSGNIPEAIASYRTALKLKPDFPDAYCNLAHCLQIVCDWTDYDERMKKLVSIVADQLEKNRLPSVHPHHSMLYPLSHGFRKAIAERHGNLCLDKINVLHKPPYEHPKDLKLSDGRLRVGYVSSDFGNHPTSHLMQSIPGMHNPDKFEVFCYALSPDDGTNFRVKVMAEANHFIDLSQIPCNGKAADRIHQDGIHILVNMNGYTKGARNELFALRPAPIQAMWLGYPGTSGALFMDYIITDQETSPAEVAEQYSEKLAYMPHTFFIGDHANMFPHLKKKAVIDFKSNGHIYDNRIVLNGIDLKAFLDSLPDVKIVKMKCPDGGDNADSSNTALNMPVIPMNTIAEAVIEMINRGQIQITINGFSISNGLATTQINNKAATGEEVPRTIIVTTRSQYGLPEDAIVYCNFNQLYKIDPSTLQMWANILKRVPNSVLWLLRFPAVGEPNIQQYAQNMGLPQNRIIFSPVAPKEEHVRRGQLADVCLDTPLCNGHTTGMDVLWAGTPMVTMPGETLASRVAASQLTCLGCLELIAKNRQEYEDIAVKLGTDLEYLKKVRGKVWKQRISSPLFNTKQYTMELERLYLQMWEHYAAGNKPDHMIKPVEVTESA
Sequence	enrichment fold change
IPNYIHMTHYHQHAH	6.97
WIRSPHQHGQIHRS	6.93
GGNEEFKPFYQIFMP	5.31
EMEVYDYFPFYQIQV	9.98
QDTTFAPFYQIIAPP	9.53
HYYQHPPIGDHHMAI	3.83
TWLDHFPWHTYHPRD	12.4
HWTSHYQHMPVHGDH	7.06

Series 3 — target: tungstate, free oxyanion; technique: microfluidic competitive inhibition; medium: in vitro, cell-free expressed; tested at: not given; reading: lower = stronger binding
Setting: derived from inhibition constants, unchanged parent 2230 nM
Starting sequence: PafA, mature enzyme, eGFP fusion (Elizabethkingia meningoseptica, UniProt Q9KJX5); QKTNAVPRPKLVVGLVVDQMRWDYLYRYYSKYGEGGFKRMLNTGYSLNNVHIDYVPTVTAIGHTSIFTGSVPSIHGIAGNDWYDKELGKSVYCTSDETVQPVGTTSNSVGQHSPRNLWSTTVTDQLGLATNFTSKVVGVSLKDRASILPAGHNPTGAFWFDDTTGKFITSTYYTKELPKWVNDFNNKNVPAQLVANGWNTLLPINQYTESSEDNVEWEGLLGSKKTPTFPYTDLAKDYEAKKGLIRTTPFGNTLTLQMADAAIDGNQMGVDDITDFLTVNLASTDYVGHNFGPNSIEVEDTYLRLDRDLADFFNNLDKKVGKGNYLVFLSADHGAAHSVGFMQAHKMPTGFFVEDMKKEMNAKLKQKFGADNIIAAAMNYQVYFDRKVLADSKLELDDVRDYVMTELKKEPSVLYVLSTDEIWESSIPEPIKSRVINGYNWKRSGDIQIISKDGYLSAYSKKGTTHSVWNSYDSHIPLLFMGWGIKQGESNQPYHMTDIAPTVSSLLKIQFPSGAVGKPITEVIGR
Change	oxyanion analog dissociation constant [µM]
Q343V	2.14
H75G	2.23
V523G	2.58
S134V	1.91
G454V	1.85
T163V	1.72
G35V	2.69
T301G	1.81

Single results of other studies
SMILES	organism	test	system	setting	measurement	value
CNC(=O)c1ccc(-c2cnn3ccc(C(=O)N(C)c4ccc(Cl)c(C(=O)OC)c4)cc23)cc1	Cryptosporidium parvum	qPCR	IFN-γ knockout mouse, faeces	10 mg/kg, day 1 post treatment	faecal oocyst shedding	6.57 log oocysts/g faeces and 6.38 log oocysts/g faeces and 5.61 log oocysts/g faeces
